Assay results gathered from unrelated publications.
A part holds a random share of what one study measured. Positions count from the first letter of the parent shown.
Sequence of UniProt Q9H2G2 (whole entry, looked up): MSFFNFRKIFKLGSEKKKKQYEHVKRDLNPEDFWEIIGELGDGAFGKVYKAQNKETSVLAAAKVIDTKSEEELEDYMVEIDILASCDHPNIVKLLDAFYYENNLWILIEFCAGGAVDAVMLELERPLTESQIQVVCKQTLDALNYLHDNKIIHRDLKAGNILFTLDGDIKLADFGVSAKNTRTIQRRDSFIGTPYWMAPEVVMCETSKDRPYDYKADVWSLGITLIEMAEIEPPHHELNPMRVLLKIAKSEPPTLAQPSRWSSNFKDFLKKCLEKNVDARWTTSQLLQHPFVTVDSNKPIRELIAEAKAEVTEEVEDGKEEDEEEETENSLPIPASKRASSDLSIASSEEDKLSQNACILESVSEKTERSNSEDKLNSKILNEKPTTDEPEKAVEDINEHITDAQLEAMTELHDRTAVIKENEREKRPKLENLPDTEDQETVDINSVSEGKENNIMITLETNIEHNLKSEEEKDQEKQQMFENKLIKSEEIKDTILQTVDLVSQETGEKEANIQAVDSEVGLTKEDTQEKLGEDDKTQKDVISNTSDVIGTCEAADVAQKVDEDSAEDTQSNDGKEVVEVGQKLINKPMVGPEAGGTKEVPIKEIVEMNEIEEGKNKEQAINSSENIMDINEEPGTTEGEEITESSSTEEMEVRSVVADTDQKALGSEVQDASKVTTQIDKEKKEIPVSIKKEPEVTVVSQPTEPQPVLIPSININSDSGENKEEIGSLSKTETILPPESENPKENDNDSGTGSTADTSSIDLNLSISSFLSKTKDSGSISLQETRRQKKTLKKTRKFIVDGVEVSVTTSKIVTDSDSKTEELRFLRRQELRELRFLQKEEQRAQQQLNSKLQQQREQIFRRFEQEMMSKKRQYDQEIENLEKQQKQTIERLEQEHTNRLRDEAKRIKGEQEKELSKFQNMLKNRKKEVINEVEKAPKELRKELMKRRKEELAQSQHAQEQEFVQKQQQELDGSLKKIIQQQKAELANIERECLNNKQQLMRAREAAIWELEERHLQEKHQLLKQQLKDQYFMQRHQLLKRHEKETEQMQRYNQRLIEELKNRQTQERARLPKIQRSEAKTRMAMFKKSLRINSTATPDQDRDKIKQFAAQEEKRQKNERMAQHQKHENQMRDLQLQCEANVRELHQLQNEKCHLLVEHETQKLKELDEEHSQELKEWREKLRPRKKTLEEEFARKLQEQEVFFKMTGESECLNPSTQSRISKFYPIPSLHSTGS
Sequence of UniProt P45983 (whole entry, looked up): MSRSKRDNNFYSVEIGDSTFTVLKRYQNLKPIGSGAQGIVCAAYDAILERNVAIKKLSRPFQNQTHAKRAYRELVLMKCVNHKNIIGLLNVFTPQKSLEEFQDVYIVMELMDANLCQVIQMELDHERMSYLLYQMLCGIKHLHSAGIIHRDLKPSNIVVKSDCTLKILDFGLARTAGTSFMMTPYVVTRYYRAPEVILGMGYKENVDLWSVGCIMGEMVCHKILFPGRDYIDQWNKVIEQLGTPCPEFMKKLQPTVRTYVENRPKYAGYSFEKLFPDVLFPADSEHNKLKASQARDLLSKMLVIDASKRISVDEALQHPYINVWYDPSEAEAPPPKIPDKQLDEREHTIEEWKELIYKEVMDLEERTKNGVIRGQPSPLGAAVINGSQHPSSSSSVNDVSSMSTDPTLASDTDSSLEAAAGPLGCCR
Sequence of UniProt Q9UEE5 (whole entry, looked up): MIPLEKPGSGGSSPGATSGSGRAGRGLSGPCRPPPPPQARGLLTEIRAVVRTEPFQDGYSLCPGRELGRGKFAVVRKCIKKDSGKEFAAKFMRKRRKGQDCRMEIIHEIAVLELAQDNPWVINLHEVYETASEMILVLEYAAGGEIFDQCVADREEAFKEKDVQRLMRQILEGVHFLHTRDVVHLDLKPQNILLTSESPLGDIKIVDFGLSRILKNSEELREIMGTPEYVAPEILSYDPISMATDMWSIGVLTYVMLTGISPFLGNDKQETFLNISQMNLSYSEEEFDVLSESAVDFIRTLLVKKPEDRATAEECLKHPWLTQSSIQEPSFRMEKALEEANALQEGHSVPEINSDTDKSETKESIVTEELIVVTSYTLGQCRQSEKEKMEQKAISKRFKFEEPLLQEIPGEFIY
Sequence of UniProt Q13131 (whole entry, looked up): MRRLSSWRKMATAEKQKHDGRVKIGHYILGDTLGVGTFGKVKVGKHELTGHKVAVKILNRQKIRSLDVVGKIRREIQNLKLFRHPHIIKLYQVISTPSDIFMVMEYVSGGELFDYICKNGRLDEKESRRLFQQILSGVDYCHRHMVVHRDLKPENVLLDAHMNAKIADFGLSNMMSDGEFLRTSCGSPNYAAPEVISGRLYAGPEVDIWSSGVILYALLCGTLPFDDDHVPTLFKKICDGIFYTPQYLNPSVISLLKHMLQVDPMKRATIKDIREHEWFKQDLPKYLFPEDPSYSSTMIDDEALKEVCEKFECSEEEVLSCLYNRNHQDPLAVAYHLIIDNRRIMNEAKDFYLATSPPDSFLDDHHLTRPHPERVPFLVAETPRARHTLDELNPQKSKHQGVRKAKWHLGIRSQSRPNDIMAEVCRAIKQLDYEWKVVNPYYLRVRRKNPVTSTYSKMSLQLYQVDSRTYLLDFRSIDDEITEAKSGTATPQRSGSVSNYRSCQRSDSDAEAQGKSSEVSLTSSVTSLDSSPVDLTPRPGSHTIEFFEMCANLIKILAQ

Series 1 — effect on: cell-free assay; method: competition with immobilised ligand; tested at: 1 µM
SMILES: CN(C)C(=O)Cn1cc(-c2nc([C@@](C)(c3ccc(-c4cnc(N)nc4)cc3)C3CC3)no2)cn1
| target | remaining binding [%] |
| --- | --- |
| MAPK8 (Homo sapiens, UniProt P45983) | 51 |
| SLK (Homo sapiens, UniProt Q9H2G2) | 94 |
| PRKAA1 (Homo sapiens, UniProt Q13131) | 95 |
| STK17A (Homo sapiens, UniProt Q9UEE5) | 100 |

Series 2 — target: CREBZF, bZIP domain (human); method: DHFR protein complementation; matrix: yeast; baseline: wild-type JUN-FOS pair; direction: higher = stronger binding
Setting: single substitutions, most at no-binding floor
Parent: JUN, bZIP domain (human); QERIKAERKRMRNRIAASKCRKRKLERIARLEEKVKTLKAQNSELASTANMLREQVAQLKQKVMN; partner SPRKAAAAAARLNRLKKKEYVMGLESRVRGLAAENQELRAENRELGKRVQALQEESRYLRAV
| Change | binding fitness |
| --- | --- |
| S43G | -1.42 natural log |
| L52V | -1.51 natural log |
| A57H | -1.18 natural log |
| L45E | -1.53 natural log |
| A49G | -1.52 natural log |
| E54M | -1.35 natural log |
| R53Q | -1.62 natural log |
| T48R | -1.51 natural log |

Series 3 — method: competition protein-binding microarray; form: double-stranded DNA, one strand shown; matrix: in vitro; tested at: 2 µM; together with: Cbf1 competitor, 0.05 µM; direction: higher = stronger binding
Target: Phosphate system positive regulatory protein PHO4, full length, GST-tagged (PHO4, Saccharomyces cerevisiae, UniProt P07270, residues 1-312)
Setting: whole 60-bp probe, lowest competitor level
Target sequence (chain): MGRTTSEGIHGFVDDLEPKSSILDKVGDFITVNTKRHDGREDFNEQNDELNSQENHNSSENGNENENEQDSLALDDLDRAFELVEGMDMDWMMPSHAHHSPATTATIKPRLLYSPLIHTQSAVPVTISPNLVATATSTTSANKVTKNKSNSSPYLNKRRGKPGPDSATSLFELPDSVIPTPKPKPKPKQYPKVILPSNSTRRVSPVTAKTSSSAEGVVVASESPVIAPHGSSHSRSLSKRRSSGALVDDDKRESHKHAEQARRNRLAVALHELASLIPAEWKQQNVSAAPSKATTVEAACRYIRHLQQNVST
| Oligonucleotide | fluorescence intensity |
| --- | --- |
| GTCTTGTCTCATTTTCACGTGGTTTTCCCCACTTCAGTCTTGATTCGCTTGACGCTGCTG | 12200 a.u. |
| CTTTCCCGATCTTGCGAAGTGGGTGTAGCACATTTGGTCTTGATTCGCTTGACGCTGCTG | 4780 a.u. |
| TTACCCGGTACGAGTCACGTGATGGAGGTGCATTGGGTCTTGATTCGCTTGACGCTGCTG | 13500 a.u. |
| CGGGGTTAAGTTTGGGCTGTGGGTGGCTTGCAGCAGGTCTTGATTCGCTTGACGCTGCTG | 4850 a.u. |
| CTGAGCAAATTCTGTGACCTGCAATTTTACTTGTTCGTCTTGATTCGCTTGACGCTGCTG | 2970 a.u. |
| GAATTTTGCAAATCCAACGTGGCCGGTTGACCAGTAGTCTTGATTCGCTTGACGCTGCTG | 11100 a.u. |
| CCTAATGTTAACGGCCACGGGGAATGCGGATCAACTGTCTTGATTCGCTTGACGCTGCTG | 9970 a.u. |
| CTAACGAAGGTTTGCCGGGTGGGTGACAAGCCAAGTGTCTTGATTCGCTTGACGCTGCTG | 3800 a.u. |

Series 4 — effect on: enzyme activity; action: inhibitor; tested at: 0.5 µM; baseline: control
Target: Beta-adrenergic receptor kinase 1 (GRK2, Homo sapiens, UniProt P25098)
Sequence of UniProt P25098 (whole entry, looked up): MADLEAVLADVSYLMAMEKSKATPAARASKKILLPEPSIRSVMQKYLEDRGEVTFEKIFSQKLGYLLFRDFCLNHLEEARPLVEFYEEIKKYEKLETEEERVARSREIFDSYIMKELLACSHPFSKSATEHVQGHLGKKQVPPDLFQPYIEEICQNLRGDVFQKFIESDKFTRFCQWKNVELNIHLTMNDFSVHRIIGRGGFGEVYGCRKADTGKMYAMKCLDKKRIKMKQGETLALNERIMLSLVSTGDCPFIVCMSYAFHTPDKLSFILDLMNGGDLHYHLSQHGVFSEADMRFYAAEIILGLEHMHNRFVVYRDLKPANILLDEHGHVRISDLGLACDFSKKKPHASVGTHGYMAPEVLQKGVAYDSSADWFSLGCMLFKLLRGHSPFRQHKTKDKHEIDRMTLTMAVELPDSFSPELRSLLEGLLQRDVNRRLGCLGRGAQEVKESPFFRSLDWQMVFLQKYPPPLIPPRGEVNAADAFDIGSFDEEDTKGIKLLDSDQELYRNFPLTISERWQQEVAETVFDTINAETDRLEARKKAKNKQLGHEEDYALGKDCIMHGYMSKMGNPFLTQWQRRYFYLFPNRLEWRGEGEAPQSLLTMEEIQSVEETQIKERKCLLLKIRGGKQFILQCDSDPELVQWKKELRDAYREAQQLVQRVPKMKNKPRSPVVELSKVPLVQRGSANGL
| Structure (SMILES) | remaining activity [%] |
| --- | --- |
| CCC(=O)Nc1ccc2ncnc(Nc3cccc(Br)c3)c2c1 | 112 |
| CC(C)[C@H](CO)Nc1nc(Nc2cccc(Cl)c2)c2ncn(C(C)C)c2n1 | 103 |
| COc1cc2ncnc(Nc3ccc(OCc4ccccc4)cc3)c2cc1OC | 101 |
| O=C1NC(=O)/C(=C/c2ccc3nccnc3c2)S1 | 93.3 |
| Nc1[nH]nc2nnc(-c3c(-c4ccccc4)nn4ccccc34)cc12 | 95 |
| O=C(Nc1ccc(Cl)cc1)c1ccccc1NCc1ccncc1 | 98.2 |
| Cc1nc(Nc2ncc(C(=O)Nc3c(C)cccc3Cl)s2)cc(N2CCN(CCO)CC2)n1 | 97 |
| CN(C)CCCn1cc(C2=C(c3c[nH]c4ccccc34)C(=O)NC2=O)c2ccccc21 | 96.5 |
| COc1ccc(Cl)cc1NC(=O)Nc1cc(C)nc2ccccc12 | 100 |
| COc1cc2ncc(-c3ccccc3)nc2cc1OC | 95.8 |
| COc1cc2ncnc(N3CCN(C(=O)Nc4ccc(Oc5ccccc5)cc4)CC3)c2cc1OC | 96.7 |
